Values quoted from earlier work, collected from citations in different studies.
± marks the error that the study gave. Converted amounts (≈) assume the structure as drawn.
lasR: Transcriptional activator protein LasR (lasR, Pseudomonas aeruginosa, UniProt P25084)
Chain of UniProt P25084 (whole entry, looked up): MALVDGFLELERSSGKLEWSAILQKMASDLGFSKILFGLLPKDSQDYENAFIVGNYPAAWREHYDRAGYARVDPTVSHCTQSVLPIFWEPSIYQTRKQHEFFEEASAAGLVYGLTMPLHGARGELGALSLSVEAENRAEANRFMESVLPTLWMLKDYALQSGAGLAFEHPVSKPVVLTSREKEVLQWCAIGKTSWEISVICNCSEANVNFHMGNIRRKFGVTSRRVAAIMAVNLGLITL
Chain of UniProt P35372 (whole entry, looked up): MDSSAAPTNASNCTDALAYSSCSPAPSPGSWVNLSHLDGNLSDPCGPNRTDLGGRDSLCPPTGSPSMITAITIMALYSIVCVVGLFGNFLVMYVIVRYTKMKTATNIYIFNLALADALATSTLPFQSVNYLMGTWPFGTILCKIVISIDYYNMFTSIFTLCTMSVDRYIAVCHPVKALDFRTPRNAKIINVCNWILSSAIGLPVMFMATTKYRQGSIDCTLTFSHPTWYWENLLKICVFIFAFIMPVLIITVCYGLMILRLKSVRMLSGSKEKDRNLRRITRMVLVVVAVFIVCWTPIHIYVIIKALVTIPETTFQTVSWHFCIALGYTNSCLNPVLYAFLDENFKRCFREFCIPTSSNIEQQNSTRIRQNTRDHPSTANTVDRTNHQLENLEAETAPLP
Chain of UniProt P28223 (whole entry, looked up): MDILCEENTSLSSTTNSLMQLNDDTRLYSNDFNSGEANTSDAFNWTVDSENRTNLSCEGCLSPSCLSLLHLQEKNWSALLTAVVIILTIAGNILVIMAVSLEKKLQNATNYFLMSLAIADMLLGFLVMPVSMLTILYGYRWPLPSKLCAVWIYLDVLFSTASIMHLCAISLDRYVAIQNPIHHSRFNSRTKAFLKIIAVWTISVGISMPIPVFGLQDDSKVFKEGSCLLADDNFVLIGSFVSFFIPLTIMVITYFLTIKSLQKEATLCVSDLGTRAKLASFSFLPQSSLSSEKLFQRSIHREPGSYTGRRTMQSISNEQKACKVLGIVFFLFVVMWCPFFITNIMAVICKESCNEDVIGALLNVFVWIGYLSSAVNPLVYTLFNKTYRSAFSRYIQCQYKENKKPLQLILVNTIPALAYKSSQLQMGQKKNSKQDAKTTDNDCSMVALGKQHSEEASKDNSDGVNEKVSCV
Chain of UniProt P15144 (whole entry, looked up): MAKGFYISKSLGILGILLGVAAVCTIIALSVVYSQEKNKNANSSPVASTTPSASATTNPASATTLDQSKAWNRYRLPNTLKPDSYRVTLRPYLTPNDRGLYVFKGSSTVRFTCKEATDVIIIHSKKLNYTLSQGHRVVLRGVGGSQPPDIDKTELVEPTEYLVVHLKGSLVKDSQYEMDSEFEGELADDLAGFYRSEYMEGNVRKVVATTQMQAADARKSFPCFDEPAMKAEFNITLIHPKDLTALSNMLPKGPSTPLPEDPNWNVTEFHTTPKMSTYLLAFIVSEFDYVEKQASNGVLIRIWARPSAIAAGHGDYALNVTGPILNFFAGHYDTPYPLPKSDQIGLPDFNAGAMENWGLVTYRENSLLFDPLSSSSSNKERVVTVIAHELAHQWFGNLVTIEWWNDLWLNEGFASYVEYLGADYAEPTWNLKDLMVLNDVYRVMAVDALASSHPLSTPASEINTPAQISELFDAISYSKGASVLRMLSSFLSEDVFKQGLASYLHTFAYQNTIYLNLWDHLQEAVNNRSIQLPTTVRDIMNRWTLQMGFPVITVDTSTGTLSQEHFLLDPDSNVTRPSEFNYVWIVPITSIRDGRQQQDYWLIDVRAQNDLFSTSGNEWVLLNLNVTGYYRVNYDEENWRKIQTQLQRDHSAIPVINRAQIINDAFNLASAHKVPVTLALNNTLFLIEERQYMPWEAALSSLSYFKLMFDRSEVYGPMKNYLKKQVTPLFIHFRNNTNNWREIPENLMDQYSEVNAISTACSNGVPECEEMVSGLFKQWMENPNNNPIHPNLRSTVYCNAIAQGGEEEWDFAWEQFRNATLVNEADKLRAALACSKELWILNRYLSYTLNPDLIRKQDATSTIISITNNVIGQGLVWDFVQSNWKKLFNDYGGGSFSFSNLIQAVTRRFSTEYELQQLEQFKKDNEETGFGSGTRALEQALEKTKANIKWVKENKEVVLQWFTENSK
Chain of UniProt P30547 (whole entry, looked up): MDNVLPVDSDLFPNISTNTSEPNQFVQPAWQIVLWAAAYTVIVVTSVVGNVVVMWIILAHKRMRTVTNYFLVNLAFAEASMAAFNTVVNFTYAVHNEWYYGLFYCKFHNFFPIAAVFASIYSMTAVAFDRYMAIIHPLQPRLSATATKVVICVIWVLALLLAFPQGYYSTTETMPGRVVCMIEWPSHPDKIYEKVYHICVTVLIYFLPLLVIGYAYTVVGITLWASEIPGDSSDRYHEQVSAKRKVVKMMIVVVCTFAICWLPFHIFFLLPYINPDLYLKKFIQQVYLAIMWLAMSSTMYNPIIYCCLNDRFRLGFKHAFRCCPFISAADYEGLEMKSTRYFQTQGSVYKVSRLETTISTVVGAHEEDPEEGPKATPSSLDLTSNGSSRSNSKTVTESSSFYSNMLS
Chain of UniProt P0A7E5 (whole entry, looked up): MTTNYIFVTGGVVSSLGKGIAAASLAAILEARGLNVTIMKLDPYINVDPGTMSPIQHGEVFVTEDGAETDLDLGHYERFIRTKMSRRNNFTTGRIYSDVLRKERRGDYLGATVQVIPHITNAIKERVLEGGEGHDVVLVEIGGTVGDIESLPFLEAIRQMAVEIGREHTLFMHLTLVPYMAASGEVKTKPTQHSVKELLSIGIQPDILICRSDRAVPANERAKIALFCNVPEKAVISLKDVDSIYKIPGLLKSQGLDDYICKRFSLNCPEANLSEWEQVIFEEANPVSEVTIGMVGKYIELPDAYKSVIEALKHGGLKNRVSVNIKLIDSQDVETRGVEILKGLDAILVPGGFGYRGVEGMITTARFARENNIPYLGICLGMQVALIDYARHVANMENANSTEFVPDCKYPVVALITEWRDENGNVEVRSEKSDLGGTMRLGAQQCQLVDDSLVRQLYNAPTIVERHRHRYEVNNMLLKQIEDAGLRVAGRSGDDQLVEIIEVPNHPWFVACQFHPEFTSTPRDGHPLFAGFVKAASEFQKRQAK

CC[C@H](C)[C@H](NC(=O)[C@@H]1CCCN1C(=O)CNC(=O)[C@H](CC(C)C)NC(=O)[C@H](CCCCN)NC(=O)[C@H](CCCNC(=N)N)NC(=O)[C@H](Cc1c[nH]c2ccccc12)NC(=O)[C@H](C)NC(=O)[C@H](CC(N)=O)NC(=O)[C@H](CCCCN)NC(=O)[C@H](CC(C)C)NC(=O)[C@H](CCCCN)NC(=O)[C@H](CC(N)=O)NC(=O)[C@H](CCCNC(=N)N)NC(=O)[C@H](C)NC(=O)[C@H](CCCNC(=N)N)NC(=O)[C@H](CCCNC(=N)N)NC(=O)[C@H](Cc1ccccc1)NC(=O)[C@H](Cc1c[nH]c2ccccc12)NC(=O)CN)C(=O)N[C@H](C(=O)NCC(=O)N1CCC[C@H]1C(=O)N[C@@H](CC(C)C)C(=O)N[C@@H](CC(C)C)C(=O)N[C@H](C(=O)N[C@@H](CCCNC(=N)N)C(=O)O)[C@@H](C)O)C(C)C  MIC (Pseudomonas aeruginosa): 4 µM (≈ 12.8 µg/mL)
CNC(=O)[C@@]12C[C@@H]1[C@@H](n1cnc3c(NC(C4CC4)C4CC4)nc(Cl)nc31)[C@H](O)[C@@H]2O  inhibition (HTR2A (Homo sapiens, UniProt P28223); binding; 10 µM, together with: [3H]ketanserin): 9%
CCCCCCCCCC(=O)CC(=O)Nc1ccccc1  inhibition (lasR; reporter gene, antagonist, rsaL-yfp reporter; 10 µM): 30%
CC(=O)OC12COC1CC(O)C1(C)C(=O)C(OC(=O)N(C)C)C3=C(C)C(OC(=O)C(O)C(C=C(C)C)NC(=O)OC(C)(C)C)CC(O)(C(OC(=O)c4cccc(OC(F)(F)F)c4)C21)C3(C)C (centres unmarked)  IC50 (LCC6-WT; cytotoxicity): 0.74 nM
CCCCCCC(=O)N[C@H]1CCOC1=O  inhibition (lasR; lasI-lacZ reporter, inhibitor; 5 µM): 15%
COc1ccc2c(c1O)CCCC=C2c1cc(OC)c(OC)c(OC)c1  inhibition (tubulin; colchicine binding; 5 µM): 95 ± 0.5%
CC[C@H](C)[C@H](NC(=O)CNC(=O)[C@H](CS)NC(=O)CNC(=O)[C@H](CO)NC(=O)[C@@H](NC(=O)[C@@H](NC(=O)[C@@H](NC(=O)[C@H](CC(N)=O)NC(=O)[C@@H](NC(=O)[C@H](CO)NC(=O)[C@H](CS)NC(=O)[C@H](C)NC(=O)[C@H](Cc1ccccc1)NC(=O)[C@H](CCCNC(=N)N)NC(=O)[C@H](CS)NC(=O)[C@H](CCCCN)NC(=O)[C@@H](NC(=O)CNC(=O)[C@@H](N)CO)[C@@H](C)CC)[C@@H](C)CC)[C@@H](C)O)[C@@H](C)O)[C@@H](C)CC)C(=O)N[C@@H](CO)C(=O)N[C@@H](CS)C(=O)N[C@@H](CCCCN)C(=O)N[C@@H](Cc1ccccc1)C(=O)O  MIC (Staphylococcus aureus): 128 µM (≈ 320 µg/mL)
CC[C@@H]1CN2CCc3c([nH]c4cccc(O)c34)[C@@H]2C[C@@H]1/C(=C\OC)C(=O)OC  Emax (OPRM1 (Homo sapiens, UniProt P35372); agonist; baseline: DAMGO): 29%
NC(=O)c1cccc(NC(=O)C(NC(=O)c2ccc(Oc3ccccc3)cc2)c2ccc(OCc3ccccc3)cc2)c1 (centres unmarked)  inhibition (Genome polyprotein, NS2B-NS3 protease (dengue virus type 2, UniProt P29990); protease activity, inhibitor; 50 µM, pH 7.5, together with: AMC substrate): 83%
CSCC[C@H](NC(=O)[C@H](Cc1ccccc1)NC(=O)CNC(=O)[C@@H](C)NC(=O)[C@@H](N)Cc1ccc(O)cc1)C(=O)N1CCC[C@H]1C(=O)N[C@@H](CC(C)C)C(=O)N[C@@H](Cc1c[nH]c2ccccc12)C(=O)NCc1cc(C(F)(F)F)cc(C(F)(F)F)c1  Ke (Substance-P receptor (Cavia porcellus, UniProt P30547); antagonist; guinea pig ileum; together with: naloxone 1 µM): 10 ± 2 nM
CCCCCCCCCC(=O)NC1CCCC1  inhibition (lasR; reporter gene, antagonist, lasI-lacZ reporter; PAO1; 250 µM): 90%
CN(C)c1ncnc2c1ncn2[C@@H]1O[C@H](CO)[C@@H](NC(=O)[C@H](N)CSC(c2ccccc2)c2ccccc2)[C@H]1O  inhibition (Aminopeptidase N (ANPEP, Homo sapiens, UniProt P15144); enzyme activity; 10 µM): 58.7%
Nc1ccn(C2OC(COP(=O)(O)OP(=O)(O)OP(=O)(O)O)C(O)C2(F)F)c(=O)n1 (centres unmarked)  apparent affinity (pyrG (Escherichia coli, UniProt P0A7E5); baseline: CTP): ~80 fold
CCC(=O)OC1C(=O)C2(C)C(O)CC3OCC3(OC(C)=O)C2C(OC(=O)c2cccc(OC(F)F)c2)C2(O)CC(OC(=O)C(O)C(C=C(C)C)NC(=O)OC(C)(C)C)C(C)=C1C2(C)C (centres unmarked)  IC50 (HCT-116; cytotoxicity): 1.45 nM
